Assay results pooled from the literature.
Numbered parts are unrelated; each lists some results of a single study. Values joined by “and” are separate records of one study, mostly repeats; a detail may differ. Changes are numbered by the printed parent chain.
UniProt P61075, sequence (whole entry, looked up): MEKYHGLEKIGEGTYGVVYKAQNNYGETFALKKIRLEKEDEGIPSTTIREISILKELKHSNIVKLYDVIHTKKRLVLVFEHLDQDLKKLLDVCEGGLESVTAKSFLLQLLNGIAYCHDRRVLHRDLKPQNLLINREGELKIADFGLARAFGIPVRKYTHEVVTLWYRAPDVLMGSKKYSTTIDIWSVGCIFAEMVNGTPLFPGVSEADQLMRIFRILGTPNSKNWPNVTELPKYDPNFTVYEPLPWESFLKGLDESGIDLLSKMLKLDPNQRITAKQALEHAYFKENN
UniProt P41143, sequence (whole entry, looked up): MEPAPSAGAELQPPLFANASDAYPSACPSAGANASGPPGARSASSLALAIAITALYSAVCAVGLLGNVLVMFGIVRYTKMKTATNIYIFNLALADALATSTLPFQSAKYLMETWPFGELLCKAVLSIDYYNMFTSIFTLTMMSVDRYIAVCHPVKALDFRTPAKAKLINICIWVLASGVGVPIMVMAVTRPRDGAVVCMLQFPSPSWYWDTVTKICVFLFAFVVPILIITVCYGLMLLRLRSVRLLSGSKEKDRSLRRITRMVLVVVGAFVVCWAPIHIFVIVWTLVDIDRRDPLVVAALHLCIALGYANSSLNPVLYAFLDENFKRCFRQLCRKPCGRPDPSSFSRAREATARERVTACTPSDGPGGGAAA
UniProt P62344, sequence (whole entry, looked up): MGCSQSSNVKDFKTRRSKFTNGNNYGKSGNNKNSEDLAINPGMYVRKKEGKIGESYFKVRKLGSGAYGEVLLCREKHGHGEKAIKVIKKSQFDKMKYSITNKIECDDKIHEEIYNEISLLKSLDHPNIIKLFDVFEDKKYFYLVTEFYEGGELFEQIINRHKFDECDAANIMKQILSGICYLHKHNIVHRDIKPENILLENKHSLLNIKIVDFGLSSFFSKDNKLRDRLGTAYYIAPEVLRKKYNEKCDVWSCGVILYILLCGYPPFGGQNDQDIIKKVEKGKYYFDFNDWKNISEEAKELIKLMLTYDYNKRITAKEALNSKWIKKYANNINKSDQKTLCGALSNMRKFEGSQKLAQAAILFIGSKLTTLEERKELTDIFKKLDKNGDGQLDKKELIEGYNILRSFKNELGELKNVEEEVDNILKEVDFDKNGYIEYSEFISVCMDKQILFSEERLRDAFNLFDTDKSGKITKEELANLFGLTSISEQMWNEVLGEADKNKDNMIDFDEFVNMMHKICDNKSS
UniProt P23975, sequence (whole entry, looked up): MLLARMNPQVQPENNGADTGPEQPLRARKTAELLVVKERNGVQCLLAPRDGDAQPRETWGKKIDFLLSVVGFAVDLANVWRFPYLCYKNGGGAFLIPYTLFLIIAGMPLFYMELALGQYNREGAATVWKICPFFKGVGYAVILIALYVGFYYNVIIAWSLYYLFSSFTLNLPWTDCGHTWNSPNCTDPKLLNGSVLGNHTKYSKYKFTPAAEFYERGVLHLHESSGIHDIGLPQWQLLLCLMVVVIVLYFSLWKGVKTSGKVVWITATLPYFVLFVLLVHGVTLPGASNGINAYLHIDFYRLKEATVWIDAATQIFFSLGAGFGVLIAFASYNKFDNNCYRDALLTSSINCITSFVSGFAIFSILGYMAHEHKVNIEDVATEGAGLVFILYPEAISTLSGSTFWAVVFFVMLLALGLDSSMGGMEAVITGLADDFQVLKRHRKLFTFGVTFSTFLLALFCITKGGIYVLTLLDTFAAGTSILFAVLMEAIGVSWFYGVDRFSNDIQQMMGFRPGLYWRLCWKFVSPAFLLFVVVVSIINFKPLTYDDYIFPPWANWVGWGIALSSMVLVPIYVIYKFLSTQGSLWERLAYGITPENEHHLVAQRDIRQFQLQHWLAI

Block 1
Target: HLA class I histocompatibility antigen, C alpha chain, allele C*04:01 (Homo sapiens, UniProt P10321)
Observed: peptide-MHC binding
Molecule type: peptide
Tested at: concentration not given
| Molecule | binding |
| --- | --- |
| AEFVFSCGI | inactive |
| KITDFGIAK | inactive |
| LPSCPTNFCIF | inactive |
| RIRAANLPI | inactive |
| WMYYPRSPV | inactive |
| AEFGPWQTV | inactive |
| AQIGIFAPV | inactive |
| LSDAARLFL | inactive |

Block 2
Target: CCNA1, cyclin fold, Cln2 fusion (human)
Method: yeast growth competition, sequencing
Medium: yeast
Notes: strong parent motif
Relative to: not given
Reading: higher = stronger binding
Starting sequence: viral docking peptide; TSVRRALFTGGSD
| Variant | normalised enrichment score |
| --- | --- |
| TSVKRALFTGGSD [R4K] | 0.828 |
| TSVRRALFTNGSD [G10N] | 1.27 |
| TSVRRKLFTGGSD [A6K] | 0.747 |
| TSVRRAKFTGGSD [L7K] | 0.0545 |
| TSVRLALFTGGSD [R5L] | -0.222 |
| TSHRRALFTGGSD [V3H] | 0.0588 |
| TSVRRALFTQGSD [G10Q] | 1.33 |
| TSVMRALFTGGSD [R4M] | 0.298 |

Other studies, line by line
| SMILES | tested on | assay | conditions | endpoint | result |
| --- | --- | --- | --- | --- | --- |
| Cc1cc2c(-c3ccco3)cnc(N[C@H]3CCN(C)C[C@@H]3C(=O)NC3CCCCC3)c2[nH]c1=O | Sodium-dependent noradrenaline transporter (SLC6A2, Homo sapiens, UniProt P23975) | cell-free assay | 10 µM | inhibition | 32.4% |
| CC(C)S(=O)(=O)c1cc2c(Nc3ccc4sc(C5CCCC5)nc4c3)ccnc2cc1OCCO | L929 RIPK3-/- reexpressing RIPK3 K51A | CCK-8 | 1.563 µM, with: zVAD | survival | 92.6% and 87.4% and 93% and 88.8% and 90.2% |
| COc1ccc2c(c1)O[C@@H](c1ccc(OC)c(OC)c1)C[C@H]2NC(=O)C1(c2ccc3c(c2)OC(F)(F)O3)CC1 | Delta-type opioid receptor (OPRD1, Homo sapiens, UniProt P41143) | binding, radioligand binding | 10 µM | inhibition | -9.84% |
| O=C(N[C@H]1CCCCC/C=C\C2C[C@@]2(C(=O)O)NC(=O)[C@@H]2C[C@@H](Oc3ccncc3)CN2C1=O)OC1CCCC1 (stereo partly drawn) | Calcium-dependent protein kinase 1 (CDPK1, Plasmodium falciparum, UniProt P62344) | cell-free assay, competition with immobilised ligand | 1 µM | remaining binding | 73% |
| O=C(O)[C@@H]1[C@@H](Cn2nnc3ccccc3c2=O)CC[C@H]1C(=O)c1ccc(OCCC2CCOCC2)cc1 | Cyclin-dependent kinase 2 homolog (CRK2, Plasmodium falciparum, UniProt P61075) | cell-free assay, competition with immobilised ligand | 1 µM | remaining binding | 100% |

For quick reference, copied from above (other studies, line by line):
| SMILES | tested on | assay | conditions | endpoint | result |
| --- | --- | --- | --- | --- | --- |
| Cc1cc2c(-c3ccco3)cnc(N[C@H]3CCN(C)C[C@@H]3C(=O)NC3CCCCC3)c2[nH]c1=O | Sodium-dependent noradrenaline transporter (SLC6A2, Homo sapiens, UniProt P23975) | cell-free assay | 10 µM | inhibition | 32.4% |
| CC(C)S(=O)(=O)c1cc2c(Nc3ccc4sc(C5CCCC5)nc4c3)ccnc2cc1OCCO | L929 RIPK3-/- reexpressing RIPK3 K51A | CCK-8 | 1.563 µM, with: zVAD | survival | 92.6% and 87.4% and 93% and 88.8% and 90.2% |
